Measurements from different studies.
Every numbered part comes from another study and shows a few of its results, in no order.
Sequence of UniProt Q8NI60 (whole entry, looked up): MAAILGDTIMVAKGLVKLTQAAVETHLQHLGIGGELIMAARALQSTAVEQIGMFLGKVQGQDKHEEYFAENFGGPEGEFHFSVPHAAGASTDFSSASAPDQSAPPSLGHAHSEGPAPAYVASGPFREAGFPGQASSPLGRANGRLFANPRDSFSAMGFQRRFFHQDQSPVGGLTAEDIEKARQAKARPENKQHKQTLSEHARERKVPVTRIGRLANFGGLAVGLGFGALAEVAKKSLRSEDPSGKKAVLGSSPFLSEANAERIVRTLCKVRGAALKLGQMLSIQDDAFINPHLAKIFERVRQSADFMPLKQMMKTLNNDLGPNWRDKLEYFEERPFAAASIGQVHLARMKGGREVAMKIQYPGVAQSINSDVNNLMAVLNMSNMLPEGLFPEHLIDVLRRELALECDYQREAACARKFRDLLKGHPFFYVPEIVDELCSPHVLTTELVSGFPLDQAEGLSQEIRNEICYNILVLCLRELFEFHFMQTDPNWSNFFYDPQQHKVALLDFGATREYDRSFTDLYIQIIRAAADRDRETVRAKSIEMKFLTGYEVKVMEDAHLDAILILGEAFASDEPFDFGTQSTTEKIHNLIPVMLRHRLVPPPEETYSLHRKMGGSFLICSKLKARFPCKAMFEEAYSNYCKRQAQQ
Sequence of UniProt P28482 (whole entry, looked up): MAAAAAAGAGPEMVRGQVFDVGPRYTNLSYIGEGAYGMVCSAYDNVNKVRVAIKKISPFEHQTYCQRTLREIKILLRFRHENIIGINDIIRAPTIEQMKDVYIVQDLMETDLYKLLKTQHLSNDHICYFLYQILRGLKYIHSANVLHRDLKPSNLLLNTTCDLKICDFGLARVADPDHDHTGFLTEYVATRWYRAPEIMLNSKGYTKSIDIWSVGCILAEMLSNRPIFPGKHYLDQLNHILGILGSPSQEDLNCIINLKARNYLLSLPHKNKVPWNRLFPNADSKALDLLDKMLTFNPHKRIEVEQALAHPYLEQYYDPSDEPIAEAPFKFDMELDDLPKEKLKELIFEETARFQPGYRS
Sequence of UniProt Q9UPZ9 (whole entry, looked up): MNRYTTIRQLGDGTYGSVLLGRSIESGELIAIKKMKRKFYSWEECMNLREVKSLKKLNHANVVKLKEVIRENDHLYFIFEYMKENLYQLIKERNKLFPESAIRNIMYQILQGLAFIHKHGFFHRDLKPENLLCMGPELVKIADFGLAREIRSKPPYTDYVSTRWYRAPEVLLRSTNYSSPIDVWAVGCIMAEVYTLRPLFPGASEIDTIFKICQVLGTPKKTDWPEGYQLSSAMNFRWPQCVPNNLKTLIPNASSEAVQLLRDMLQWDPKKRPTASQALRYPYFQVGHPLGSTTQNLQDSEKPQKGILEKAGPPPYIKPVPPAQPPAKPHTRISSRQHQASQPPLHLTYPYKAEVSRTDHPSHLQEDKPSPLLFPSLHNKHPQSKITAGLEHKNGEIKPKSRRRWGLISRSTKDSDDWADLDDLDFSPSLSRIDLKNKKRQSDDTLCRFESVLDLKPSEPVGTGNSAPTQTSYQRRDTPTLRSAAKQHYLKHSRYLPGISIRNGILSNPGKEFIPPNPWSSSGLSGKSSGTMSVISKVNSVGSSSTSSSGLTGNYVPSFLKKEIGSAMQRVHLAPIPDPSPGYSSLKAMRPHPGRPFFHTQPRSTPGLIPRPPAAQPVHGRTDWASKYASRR
Sequence of UniProt Q8IW41 (whole entry, looked up): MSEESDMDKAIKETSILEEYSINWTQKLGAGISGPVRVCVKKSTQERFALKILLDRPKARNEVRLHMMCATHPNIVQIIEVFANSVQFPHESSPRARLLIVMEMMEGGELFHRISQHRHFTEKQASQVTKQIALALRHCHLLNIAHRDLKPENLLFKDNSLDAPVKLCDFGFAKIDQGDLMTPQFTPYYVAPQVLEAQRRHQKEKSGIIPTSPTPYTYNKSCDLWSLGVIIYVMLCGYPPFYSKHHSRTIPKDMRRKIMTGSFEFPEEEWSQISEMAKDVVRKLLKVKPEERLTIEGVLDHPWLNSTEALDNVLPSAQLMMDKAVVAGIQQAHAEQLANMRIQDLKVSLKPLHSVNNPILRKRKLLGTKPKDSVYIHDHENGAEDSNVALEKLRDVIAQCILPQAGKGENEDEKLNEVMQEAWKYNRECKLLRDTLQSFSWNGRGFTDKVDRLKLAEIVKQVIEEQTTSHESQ
Sequence of UniProt Q13523 (whole entry, looked up): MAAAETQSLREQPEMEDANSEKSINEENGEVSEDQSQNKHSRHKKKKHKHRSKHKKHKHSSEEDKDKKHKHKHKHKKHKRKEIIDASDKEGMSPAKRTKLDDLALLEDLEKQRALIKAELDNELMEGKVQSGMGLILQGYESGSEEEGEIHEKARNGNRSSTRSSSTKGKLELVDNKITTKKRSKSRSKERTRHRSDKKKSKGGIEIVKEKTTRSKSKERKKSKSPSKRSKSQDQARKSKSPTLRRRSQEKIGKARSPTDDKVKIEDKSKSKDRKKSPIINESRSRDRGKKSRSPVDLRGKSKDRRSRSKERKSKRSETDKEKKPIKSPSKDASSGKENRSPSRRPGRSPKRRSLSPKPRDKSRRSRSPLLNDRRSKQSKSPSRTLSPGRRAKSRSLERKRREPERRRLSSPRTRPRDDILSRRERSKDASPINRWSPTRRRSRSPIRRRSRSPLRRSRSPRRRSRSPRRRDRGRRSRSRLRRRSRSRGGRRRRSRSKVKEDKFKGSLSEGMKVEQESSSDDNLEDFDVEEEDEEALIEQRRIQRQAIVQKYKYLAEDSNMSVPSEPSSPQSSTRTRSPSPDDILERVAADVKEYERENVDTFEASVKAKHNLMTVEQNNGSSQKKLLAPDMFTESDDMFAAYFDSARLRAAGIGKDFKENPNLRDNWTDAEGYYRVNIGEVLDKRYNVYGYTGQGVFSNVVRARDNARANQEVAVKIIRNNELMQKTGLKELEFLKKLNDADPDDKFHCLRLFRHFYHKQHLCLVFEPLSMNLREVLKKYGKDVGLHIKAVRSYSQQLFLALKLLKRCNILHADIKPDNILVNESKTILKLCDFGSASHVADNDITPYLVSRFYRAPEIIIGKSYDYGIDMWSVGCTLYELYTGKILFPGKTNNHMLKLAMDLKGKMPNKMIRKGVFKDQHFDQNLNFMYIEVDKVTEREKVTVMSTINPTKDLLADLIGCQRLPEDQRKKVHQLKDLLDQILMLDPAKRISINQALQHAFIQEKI
Sequence of UniProt O14965 (whole entry, looked up): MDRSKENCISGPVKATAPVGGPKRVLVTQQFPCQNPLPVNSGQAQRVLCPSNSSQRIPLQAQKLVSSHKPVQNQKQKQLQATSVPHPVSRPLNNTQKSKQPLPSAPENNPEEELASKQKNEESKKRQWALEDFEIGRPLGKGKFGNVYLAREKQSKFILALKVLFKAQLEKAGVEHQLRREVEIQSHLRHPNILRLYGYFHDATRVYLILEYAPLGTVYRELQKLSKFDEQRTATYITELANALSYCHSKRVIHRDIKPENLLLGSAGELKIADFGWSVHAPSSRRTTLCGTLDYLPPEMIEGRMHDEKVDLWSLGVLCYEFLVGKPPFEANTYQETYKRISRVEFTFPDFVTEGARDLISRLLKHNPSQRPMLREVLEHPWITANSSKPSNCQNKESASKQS
Sequence of UniProt P42679 (whole entry, looked up): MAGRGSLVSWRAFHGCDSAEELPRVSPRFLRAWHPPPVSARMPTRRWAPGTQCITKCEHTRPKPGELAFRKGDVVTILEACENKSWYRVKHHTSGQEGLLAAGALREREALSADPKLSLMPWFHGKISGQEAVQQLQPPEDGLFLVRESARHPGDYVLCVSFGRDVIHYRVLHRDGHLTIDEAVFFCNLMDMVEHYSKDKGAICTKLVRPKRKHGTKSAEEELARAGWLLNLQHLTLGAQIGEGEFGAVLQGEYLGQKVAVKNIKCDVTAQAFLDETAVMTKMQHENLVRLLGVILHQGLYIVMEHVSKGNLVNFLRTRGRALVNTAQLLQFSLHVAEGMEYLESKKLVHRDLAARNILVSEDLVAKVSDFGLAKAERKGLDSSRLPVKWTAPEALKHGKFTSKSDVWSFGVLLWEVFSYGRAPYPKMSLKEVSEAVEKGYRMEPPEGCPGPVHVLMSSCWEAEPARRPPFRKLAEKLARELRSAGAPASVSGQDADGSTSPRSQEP

Block 1
Cell line: A-375
Concentration: 100 µM
Time: 18 h
| SMILES | viability |
| --- | --- |
| CC(C)C(=O)Oc1ccc(CO)cc1[C@H](CCN(C(C)C)C(C)C)c1ccccc1 | 40.4% |
| CN(C)[C@@H]1C(O)=C(C(N)=O)C(=O)[C@@]2(O)C(O)=C3C(=O)c4c(O)ccc(Cl)c4[C@@](C)(O)[C@H]3C[C@@H]12 | 103% |
| O=c1[nH]c(=O)n(C2CCCO2)cc1F (stereo not drawn) | 87.1% |
| Cc1cncc(CN2CCC(=C3c4ccc(Cl)cc4CCc4cccnc43)CC2)c1 | 8.83% |
| Cc1nccn1CC1CCc2c(c3ccccc3n2C)C1=O (stereo not drawn) | 71.5% |
| COC(=O)[C@H]1[C@H]2C[C@@H]3c4[nH]c5cc(OC)ccc5c4CCN3C[C@H]2C[C@@H](OC(=O)c2cc(OC)c(OC)c(OC)c2)[C@@H]1OC | 61.8% |
| OC[C@H]1O[C@H](OC[C@H]2O[C@H](OC[C@H]3O[C@H](O[C@]4(CO)O[C@H](CO)[C@@H](O)[C@@H]4O)[C@H](O)[C@@H](O)[C@@H]3O)[C@H](O)[C@@H](O)[C@H]2O)[C@H](O)[C@@H](O)[C@H]1O | 76.1% |
| O=C1Nc2ccc(Cl)cc2[C@@](C#CC2CC2)(C(F)(F)F)O1 | 8.35% |

Block 2
Target: Ephrin type-A receptor 4 (EPHA4, Homo sapiens, UniProt P54764)
Sequence of UniProt P54764 (whole entry, looked up): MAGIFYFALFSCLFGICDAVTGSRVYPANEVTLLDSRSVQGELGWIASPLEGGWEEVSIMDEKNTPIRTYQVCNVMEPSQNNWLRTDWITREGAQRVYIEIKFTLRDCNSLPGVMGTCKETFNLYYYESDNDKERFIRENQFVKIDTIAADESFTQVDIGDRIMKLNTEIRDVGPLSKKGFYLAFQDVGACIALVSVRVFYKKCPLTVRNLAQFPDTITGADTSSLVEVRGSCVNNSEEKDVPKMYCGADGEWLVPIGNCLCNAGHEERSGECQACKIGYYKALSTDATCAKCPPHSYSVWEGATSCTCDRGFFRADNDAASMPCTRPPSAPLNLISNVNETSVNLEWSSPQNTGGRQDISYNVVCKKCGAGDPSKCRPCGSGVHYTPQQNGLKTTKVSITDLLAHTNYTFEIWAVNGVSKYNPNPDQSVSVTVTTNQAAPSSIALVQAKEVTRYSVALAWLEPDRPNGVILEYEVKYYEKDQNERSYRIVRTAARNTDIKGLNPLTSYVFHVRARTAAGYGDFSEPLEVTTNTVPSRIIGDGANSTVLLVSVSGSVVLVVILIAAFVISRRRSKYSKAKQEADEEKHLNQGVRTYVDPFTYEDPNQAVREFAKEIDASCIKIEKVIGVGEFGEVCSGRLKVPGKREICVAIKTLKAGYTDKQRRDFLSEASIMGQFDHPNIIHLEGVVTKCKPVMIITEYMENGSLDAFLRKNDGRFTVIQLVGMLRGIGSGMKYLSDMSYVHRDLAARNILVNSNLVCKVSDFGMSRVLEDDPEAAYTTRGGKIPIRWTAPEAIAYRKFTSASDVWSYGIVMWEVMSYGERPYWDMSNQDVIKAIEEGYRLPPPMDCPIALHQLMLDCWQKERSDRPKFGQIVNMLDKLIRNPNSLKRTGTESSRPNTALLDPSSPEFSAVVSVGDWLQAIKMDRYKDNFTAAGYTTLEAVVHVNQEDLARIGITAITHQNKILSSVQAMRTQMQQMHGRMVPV
Effect on: enzyme activity
Mode: inhibitor
Concentration: 0.5 µM
Relative to: control
| SMILES | remaining activity [%] |
| --- | --- |
| Cc1cc(Nc2nc(-c3ccccc3)nc3ccccc23)n[nH]1 | 70.7 |
| Cc1cncc2cccc(S(=O)(=O)N3CCCN(C(=O)CN)C[C@@H]3C)c12 | 99.9 |
| Nc1nc(Nc2ccc(S(N)(=O)=O)cc2)nn1C(=O)c1c(F)cccc1F | 91.3 |
| CC(C)(C)n1nc(Cc2cccc3ccccc23)c2c(N)ncnc21 | 48.9 |
| COc1ccc(S(=O)(=O)N(CCO)c2ccccc2CN(C)CC=Cc2ccc(Cl)cc2)cc1 | 99.2 |
| CC(=O)c1ccc(N2CCOCC2)cc1O | 101 |

Block 3
Organism: Sarcocystis neurona
Effect on: parasite growth
Concentration: 10 µM
Time: 96 h
Relative to: untreated
| SMILES | log2 fold change |
| --- | --- |
| Clc1ccc(COC(Cn2ccnc2)c2ccc(Cl)cc2Cl)c(Cl)c1 (stereo not drawn) | -1.13 |
| Cc1c(O)cccc1C(=O)N[C@@H](CSc1ccccc1)[C@H](O)CN1C[C@H]2CCCC[C@H]2C[C@H]1C(=O)NC(C)(C)C | -1.47 |
| CCOC(=O)OC(C)OC1=C(C(=O)Nc2ccccn2)N(C)S(=O)(=O)c2ccccc21 (stereo not drawn) | 0.31 |

Block 4
SMILES: COc1ccc2c(c1)O[C@@H](c1ccc(OC)c(OC)c1)C[C@H]2NC(=O)C1(c2ccc3c(c2)OC(F)(F)O3)CC1
Method: competition with immobilised ligand
Concentration: 1 µM
| target | effect on | remaining binding [%] |
| --- | --- | --- |
| Aurora kinase A (AURKA, Homo sapiens, UniProt O14965) | cell-free assay | 92 |
| Ephrin type-A receptor 6 (EPHA6, Homo sapiens, UniProt Q9UF33) | cell-free assay | 89 |
| Serine/threonine-protein kinase D3 (PRKD3, Homo sapiens, UniProt O94806) | cell-free assay | 97 |
| Ephrin type-A receptor 5 (EPHA5, Homo sapiens, UniProt P54756) | cell-free assay | 100 |
| MAP kinase-activated protein kinase 5 (MAPKAPK5, Homo sapiens, UniProt Q8IW41) | cell-free assay | 76 |
| Receptor-type tyrosine-protein kinase FLT3 (FLT3, Homo sapiens, UniProt P36888, D835Y) | cell-free assay | 100 |
| Mitogen-activated protein kinase 1 (MAPK1, Homo sapiens, UniProt P28482) | cell-free assay | 100 |
| ALK tyrosine kinase receptor (ALK, Homo sapiens, UniProt Q9UM73, C1156Y) | cell-free assay | 84 |
| Tyrosine-protein kinase ABL1, phosphorylated (ABL1, Homo sapiens, UniProt P00519, F317I) | cell-free assay | 78 |
| Atypical kinase COQ8A, mitochondrial (COQ8A, Homo sapiens, UniProt Q8NI60) | cell-free assay | 87 |
| Serine/threonine-protein kinase PRP4 homolog (PRPF4B, Homo sapiens, UniProt Q13523) | cell-free assay | 83 |
| Serine/threonine-protein kinase ICK (CILK1, Homo sapiens, UniProt Q9UPZ9) | binding | 74 |
| Megakaryocyte-associated tyrosine-protein kinase (MATK, Homo sapiens, UniProt P42679) | cell-free assay | 93 |

Excerpt of the above (block 2):
| SMILES | remaining activity [%] |
| --- | --- |
| Cc1cc(Nc2nc(-c3ccccc3)nc3ccccc23)n[nH]1 | 70.7 |
| COc1ccc(S(=O)(=O)N(CCO)c2ccccc2CN(C)CC=Cc2ccc(Cl)cc2)cc1 | 99.2 |
